Published values from different studies.
Protocols differ between the studies behind these lines. “And” joins repeats or separate records; there may be more than shown. ± gives the spread as reported.
rep main protease: Replicase polyprotein 1ab, main protease (rep, Severe acute respiratory syndrome coronavirus 2, UniProt P0DTD1)

Compound | tested on | test | test system | setting | measurement | value
CC(C)(C)NC(=O)[C@@H]1C[C@@H]2CCCC[C@@H]2CN1C[C@@H](O)[C@H](Cc1ccccc1)NC(=O)[C@H](CC(N)=O)NC(=O)c1ccc2ccccc2n1 | rep main protease | reporter gene (Gaussia luciferase), inhibitor |  | 20 µM | inhibition | 0.449%
COc1ccc2c(Sc3ccc(Cl)cc3)c(C(=O)NCCCN3CCCCC3)[nH]c2c1 | SARS-CoV-2 | cytopathic effect | USA_WA1/2020 | round 2, 5-point | maximum response | 97.4%
O=C(NO)c1ccc(C2=Nc3ccccc3Oc3ccccc32)cc1 | SARS-CoV-2 | viral replication, high-content imaging screen | BetaCov/Belgium/GHB-03021/2020 | cell-based | EC50 | > 100 µM
CC(C)(C)[C@H](NC(=O)C(F)(F)F)C(=O)N1C[C@H]2[C@@H]([C@H]1C(=O)N[C@H](C#N)C[C@@H]1CCNC1=O)C2(C)C | SARS-CoV-2 | viral replication | Vero E6 | 3 µM | inhibition | 93.2% and 119% and 105%
CC(C)=CCc1c(O)ccc(C(=O)/C=C/c2ccc(O)cc2)c1O | SARS-CoV-2 | cytopathic effect | Vero E6 | 0.7812 µM, replicate run | mean inhibition | 0%
CC[C@H](C)[C@H](NC(=O)[C@H](CC(C)C)NC(=O)[C@H](Cc1c[nH]c2ccccc12)NC(=O)[C@H](CCC(N)=O)NC(=O)[C@@H](NC(=O)[C@H](Cc1ccccc1)NC(=O)[C@H](C)NC(=O)[C@H](CCCCNC(=O)COCCOCCNC(=O)COCCOCCNC(=O)CC[C@H](NC(=O)CCCCCCCCCCCCCCCCCCC(=O)O)C(=O)O)NC(=O)[C@H](CCC(N)=O)NC(=O)[C@H](C)NC(=O)[C@@H](NC(=O)[C@H](CCCCN)NC(=O)[C@H](CC(=O)O)NC(=O)[C@H](CC(C)C)NC(=O)C(C)(C)NC(=O)[C@@H](NC(=O)[C@H](CO)NC(=O)[C@H](Cc1ccc(O)cc1)NC(=O)[C@H](CC(=O)O)NC(=O)[C@H](CO)NC(=O)[C@@H](NC(=O)[C@H](Cc1ccccc1)NC(=O)[C@@H](NC(=O)CNC(=O)[C@H](CCC(=O)O)NC(=O)C(C)(C)NC(=O)[C@@H](N)Cc1ccc(O)cc1)[C@@H](C)O)[C@@H](C)O)[C@@H](C)CC)[C@@H](C)CC)C(C)C)C(=O)N[C@@H](C)C(=O)NCC(=O)NCC(=O)N1CCC[C@H]1C(=O)N[C@@H](CO)C(=O)N[C@@H](CO)C(=O)NCC(=O)N[C@@H](C)C(=O)N1CCC[C@H]1C(=O)N1CCC[C@H]1C(=O)N1CCC[C@H]1C(=O)N[C@@H](CO)C(N)=O |  |  | healthy subjects, single ascending dose | 2.5 mg, baseline | serum amylase | 81 ± 17.7 U/L
O=C(/C=C/c1ccc(O)c(O)c1/C=C/c1ccc(O)c(O)c1)O[C@H](Cc1ccc(O)c(O)c1)C(=O)O | SARS-CoV-2 | cytopathic effect | Vero E6 | 3.125 µM, replicate run | mean inhibition | 0%
CCCCN(C)CCCNC(=O)c1ccc2nc(N3CCCCC3)sc2c1 | SARS-CoV-2 | cytopathic effect | USA_WA1/2020 | round 2, 5-point | maximum response | 66.5%
CC1CNc2c(cccc2S(=O)(=O)N[C@@H](CCCNC(=N)N)C(=O)N2CC[C@@H](C)C[C@@H]2C(=O)O)C1 (some centres unmarked) | rep main protease | reporter gene (Gaussia luciferase), inhibitor |  | 20 µM | inhibition | 1.48%
Nc1ncnc2c([C@@H]3N[C@H](CO)[C@@H](O)[C@H]3O)c[nH]c12 | Junin virus | viral replication | HeLa, Romero | 0.4 µM | inhibition | 8%
CCN(CC)Cc1ccc2cc(COC(=O)Nc3ccc(C(=O)NO)cc3)ccc2c1 | SARS-CoV-2 | viral replication, high-content imaging screen |  | cell-based | EC50 | > 100 µM
Cn1cnc(Cn2c(=O)[nH]/c(=N\c3cc4cn(C)nc4cc3Cl)n(Cc3cc(F)c(F)cc3F)c2=O)n1 |  |  | human, all renal function groups | oral, 375 mg | anaemia TEAE, Severe severity | 0%
CCCCSCCCNC(=O)C1CCN(Cc2nc(-c3ccc(CC)cc3)oc2C)CC1 | SARS-CoV-2 | cytopathic effect | USA_WA1/2020 |  | AC50 | 14.1 µM
CC1(C)CCC(c2ccc(Cl)cc2)=C(CN2CCN(c3ccc(C(=O)NS(=O)(=O)c4ccc(N[C@H](CCN5CCOCC5)CSc5ccccc5)c(S(=O)(=O)C(F)(F)F)c4)cc3)CC2)C1 | SARS-CoV-2 | viral replication, high-content imaging screen |  | cell-based | EC50 | > 100 µM
CCN(CC)CCCNC(=O)CSc1c2c(nc3cc(Cl)ccc13)CCCC2 | SARS-CoV-2 | cytopathic effect, cell-based CPE | USA_WA1/2020 | round 2, 5-point dilution | AC50 | 14.1 µM
O=C(O[C@@H]1Cc2c(O)cc(O)cc2O[C@@H]1c1cc(O)c(O)c(O)c1)c1cc(O)c(O)c(O)c1 | SARS-CoV-2 | viral cytopathic effect | Vero E6 | 1.562 µM | mean inhibition | 0%
COC(=O)N[C@H](C(=O)N1CCC[C@H]1c1nc(-c2ccc(-c3ccc(-c4c[nH]c([C@@H]5CCCN5C(=O)[C@@H](NC(=O)OC)C(C)C)n4)cc3)cc2)c[nH]1)C(C)C | SARS-CoV-2 | viral replication, high-content imaging screen |  | cell-based | EC50 | > 100 µM

For quick reference, copied from above:
Compound | tested on | test | test system | setting | measurement | value
Nc1ncnc2c([C@@H]3N[C@H](CO)[C@@H](O)[C@H]3O)c[nH]c12 | Junin virus | viral replication | HeLa, Romero | 0.4 µM | inhibition | 8%
